Measurements pooled from the literature.
Protocols differ between the studies behind these lines. ± gives the spread as reported.

Substance | cell line | assay | test system | setting | IC50
C[C@@]12OC(=O)[C@]1([C@@H](O)[C@@H]1C=CCCC1)NC(=O)[C@@H]2CCCl | human astrocytes | C3 secretion, ELISA |  | with: stimulated PBMC supernatant | < 0.025 µM
N=C(N)NCCC[C@H](NC(=O)[C@H](Cc1c[nH]c2ccccc12)NC(=O)[C@H](CCC(N)=O)NC(=O)[C@H](Cc1c[nH]c2ccccc12)NC(=O)[C@H](CCCNC(=N)N)NC(=O)[C@H](Cc1c[nH]c2ccccc12)NC(=O)[C@H](CCC(N)=O)NC(=O)[C@H](Cc1c[nH]c2ccccc12)NC(=O)[C@@H](N)CCCN)C(N)=O | Caco-2 | cell growth or viability, MTT |  |  | 91 µM
O=P12CN3CN(CN(C3)C1)C2 | DU-145 | cell growth or viability, MTT |  | 24 h | > 500 µM
C1N2CN3CN1CP(C2)C3.Cc1cc(C)n(C(C(=O)OC(C)C)n2nc(C)cc2C)n1.F[P-](F)(F)(F)(F)F.[Cu+] | LoVo OXP, oxaliplatin-resistant | MTT |  | 72 h | 14.9 ± 1 µM
CCn1cnc2c(Nc3cccc(Cl)c3)nc(N[C@@H]3CCCC[C@@H]3N)nc21 | HeLa expressing Ub(G76V)-GFP | Ub(G76V)-GFP degradation, inhibitor, cycloheximide chase |  |  | 7 ± 1 µM
Cc1n[nH]c(C)c1Cc1sc2c(c1C(=O)N1C[C@H](O)CO1)c(=O)n(C)c(=O)n2CC(C)C | KNRK cells | GHB uptake |  | 1 min, pH 6.5, with: [3H]GHB 10 µM | 0.0068 µM
N#C/C(=C/c1ccc(O)c(O)c1)C(=O)NCc1ccccc1 | Ba/F3 JAK2 V617F | kinase activity | immunoprecipitated full-length JAK2 | with: IL-3 | 145 µM
O=C(Cn1cnc2ccccc2c1=O)NCc1cccnc1 | MDA-MB-231 | cell growth or viability, crystal violet |  | 48 h | 34.4 µM
COc1ccc(C[C@H]2NC(=O)/C=C/C[C@@H]([C@H](C)[C@@H](OC(=O)CNC(=O)OCc3ccc(NC(=O)[C@H](C)NC(=O)[C@@H](NC(=O)CCc4cn(CCOCCOCCOCCOCC(=O)NCc5ccc(CN6C(=O)[C@H]7CC(=O)N[C@@H](CCCNC(=N)N)C(=O)NCC(=O)N[C@@H](CC(=O)O)C(=O)NC[C@H]6C(=O)N7)cc5)nn4)C(C)C)cc3)[C@@H](Cl)c3ccccc3)OC(=O)[C@H](CC(C)C)OC(=O)C(C)(C)CNC2=O)cc1Cl | M21 human melanoma (integrin αvβ3-positive) | cell viability, MTT |  | 2 h treatment plus 70 h | 0.0727 ± 0.0112 µM
CC(C)c1ccc2c(c1)CC[C@H]1[C@](C)(CN)CCC[C@]21C | UACC-903 | cell growth or viability, MTS |  | 24 h | 1.78 µM
CC[C@H](C)[C@H](N)C(=O)N[C@@H](CC(C)C)C(=O)N[C@@H](CCCNC(=N)N)C(=O)N[C@@H](Cc1c[nH]c2ccccc12)C(=O)N[C@@H](CO)C(=O)N[C@@H](CCCNC(=N)N)C(=O)N[C@@H](CCCCN)C(=O)N[C@@H](CC(C)C)C(=O)N1CCC[C@H]1C(=O)N[C@@H](CS)C(=O)N[C@H](C(=O)N[C@@H](CO)C(=O)O)C(C)C | SUP-T1 | ERK phosphorylation, inhibitor, phosphoflow cytometry |  | with: CXCL12 100 ng/mL, 2 min | 1.54 ± 0.51 µM
Cc1c2ccncc2c(C)c2c1[nH]c1ccccc12 | MDA-MB-468 | cytotoxicity, MTT |  | 3 h exposure, 96 h total | 1.9 ± 0.76 µM
C[C@@H](Oc1cc(-c2cnn(C3CCNCC3)c2)cnc1N)c1c(Cl)ccc(F)c1Cl | Ba/F3 parental | cell proliferation |  | 72 h, with: IL-3 | 15.4 µM
N#CC1(c2ccc(NC(=O)c3cccnc3NCc3ccncc3)cc2)CCCC1 | MHCC97H | cell growth or viability, MTT |  | 48 h | 1.65 µM
CC1=C(/C=C/C(C)=C/C=C/C(C)=C/C(=O)Nc2ccc(O)cc2)C(C)(C)CCC1 | HEK293 expressing MOR | cAMP overshoot, inhibitor, HTRF cAMP |  | with: morphine then naloxone | 18.4 µM
COc1cc2c(c(OC)c1OC)-c1ccc(N)c(=O)cc1[C@@H](NC(C)=O)CC2 | HT-1080 MT1-MMP positive | cell viability, MTT |  | 96 h exposure | 0.031 ± 0.0013 µM
CC(C)C[C@@H]1NC(=O)[C@@H]2CSSC[C@@H](C(=O)NCC(=O)O)NC(=O)[C@H](Cc3ccccc3)NC(=O)CNC(=O)[C@H](CC(N)=O)NC(=O)[C@@H]3CCCN3C(=O)CNC(=O)[C@@H]3CSSC[C@H](NC(=O)[C@H](CO)NC(=O)[C@H]([C@@H](C)O)NC(=O)[C@@H]4CCCN4C(=O)[C@H](C)NC(=O)[C@H](Cc4c[nH]c5ccccc45)NC(=O)[C@H](CC(=O)O)NC(=O)CNC(=O)[C@H](CCCNC(=N)N)NC(=O)CNC(=O)[C@H](CCC(N)=O)NC(=O)[C@@H]4CCCN4C(=O)[C@@H](NC(=O)CN)CSSC[C@H](NC(=O)CNC(=O)[C@H](C)NC1=O)C(=O)N[C@@H](C(C)C)C(=O)N3)C(=O)N[C@@H](CO)C(=O)N[C@@H](CCC(N)=O)C(=O)N[C@@H](CC(=O)O)C(=O)N[C@@H](CO)C(=O)N[C@@H](CC(=O)O)C(=O)N2 | U-87 MG | cell adhesion to vitronectin |  | 2 h, 37 °C | 0.01 ± 0.002 µM
COc1ccc(C[C@H]2NC(=O)/C=C/C[C@@H]([C@H](C)[C@@H](OC(=O)CN)[C@@H](Cl)c3ccccc3)OC(=O)[C@H](CC(C)C)OC(=O)C(C)(C)CNC2=O)cc1Cl | M21 | cytotoxicity, resazurin |  | 2 h plus 70 h incubation, without β-glucuronidase | 0.00425 ± 0.00043 µM
CCN(CC)C(=S)[S][Sn]([c]1ccccc1)([c]1ccccc1)[c]1ccccc1 | WIL2-NS | cell growth or viability, MTT |  |  | 0.2 µM
N.N.[Cl][Pt][Cl] | KCL-22 | cell viability, trypan blue exclusion |  | 48 h, dark | 13 ± 1.5 µM
N.N.[Cl][Pt][Cl] | A2780cisR | cell growth or viability, MTT |  | 72 h, drug-resistant strain | 17 µM
CC(C(O)c1ccc(O)cc1)N1CCC(Cc2ccccc2)CC1 (stereo not shown) | HEK293 expressing MOR | cAMP overshoot, inhibitor, HTRF cAMP |  | with: morphine then naloxone | 8.2 µM

Substance | cell line | assay | test system | setting | IC50
[H]/N=C(/NC)NCCC[C@H](N)C(=O)O | mouse peritoneal cells | nitric oxide production, Griess |  | 24 h, with: LPS plus IFN-gamma | 35.1 µM
N.N.[Cl][Pt][Cl] | K562 | cell growth or viability, resazurin |  |  | 18.5 µM
Cc1sc2c(c1C)C(c1ccc(Cl)cc1)=N[C@@H](CC(=O)OC(C)(C)C)c1nnc(C)n1-2 | MOLM-14, parental and FLT3 D835Y or F691L | cell proliferation |  | 72 h | ~0.2 µM
COC(=O)C[C@H](O)COC(=O)/C=C/CCl | RAW264.7 | NO release, inhibitor |  | LPS-stimulated | 7.8 µM
C[C@H]1C[C@H]2[C@@H]3CCC4=CC(=O)C=C[C@]4(C)[C@@]3(Cl)[C@@H](O)C[C@]2(C)[C@@]1(O)C(=O)CO | H3255 (EGFR L858R) | cell viability, Alamar Blue |  | 120 h | > 10 µM
O=C(NC(=O)c1cc2c(F)cc(F)cc2[nH]1)c1cccc(Cl)c1 | KNS-42 | cell growth or viability, resazurin |  | 72 h | 6.65 µM
N.N.[Cl][Pt][Cl] | HCT-116 | cell viability, MTS |  | 72 h | 41 ± 2.7 µM
CC(NC(=O)c1cc2ccc(Br)cc2[nH]1)C12CC3CC(CC(C3)C1)C2 (stereo not shown) | KNS-42 | cell growth or viability, resazurin |  | 72 h | 0.84 µM
CC(C)=CCOc1c2occc2cc2ccc(=O)oc12 | COLO 320 multidrug-resistant | cell growth, MTT |  | 72 h | 40.5 ± 1.22 µM
N.N.[Cl][Pt][Cl] | A-375 | cell growth or viability, MTT |  | 72 h | 2.56 µM
COc1ccc(C[C@H]2NC(=O)/C=C/C[C@@H]([C@H](C)[C@@H](OC(=O)CN)[C@@H](Cl)c3ccccc3)OC(=O)[C@H](CC(C)C)OC(=O)C(C)(C)CNC2=O)cc1Cl | M21 human melanoma (integrin αvβ3-positive) | cell viability, MTT |  | 2 h treatment plus 70 h | 0.00075 ± 0.00011 µM
CN1CCN(C2Cc3ccccc3Sc3ccc(Cl)cc32)CC1 (stereo not shown) | HepG2 | cell viability, ATP content |  | 24 h | 62.8 µM
COc1cc(C(=O)c2oc3c(OC)cccc3c2N)cc(OC)c1OC | L1210 | cell growth or viability |  |  | 6.39 µM
CCc1c(Cl)nc(N)nc1Cl | mouse peritoneal cells | nitric oxide production, Griess |  | 24 h, with: LPS plus IFN-gamma | 35.7 µM
O=C1C[C@@H](c2ccc(O)cc2)Oc2cc(O)ccc21 | MDA-MB-231 breast cancer | cell growth |  |  | 144 ± 14.5 µM
COc1ccc(C[C@H]2NC(=O)/C=C/C[C@@H]([C@H](C)[C@@H](OC(=O)CNC(=O)CCc3cn(CCOCCOCCOCCOCC(=O)NCc4ccc(CN5C(=O)[C@H]6CC(=O)N[C@H](C(=O)O)CC(=O)NCC(=O)N[C@@H](CCCNC(=N)N)C(=O)NC[C@H]5C(=O)N6)cc4)nn3)[C@@H](Cl)c3ccccc3)OC(=O)[C@H](CC(C)C)OC(=O)C(C)(C)CNC2=O)cc1Cl | M21-L human melanoma (integrin αv-negative) | cell viability, MTT |  | 2 h treatment plus 70 h | 0.141 ± 0.0133 µM
COc1cccc2c1C(=O)c1c(O)c3c(c(O)c1C2=O)C[C@@](O)(C(=O)CO)C[C@@H]3O[C@H]1C[C@H](N)[C@H](O)[C@H](C)O1 | U-251 | cell growth or viability, SRB |  | 72 h | 3.3 µM
O=C(NC(=O)c1cc2c(F)cc(F)cc2[nH]1)c1cccc(F)c1 | KNS-42 | cell growth or viability, resazurin |  | 72 h | 2.16 µM
N.N.[Cl][Pt][Cl] | DU-145 | cell growth or viability, SRB |  |  | 2.8 µM
C=C(C)C1CC=C(COC(=O)CCC(=O)OC2OC3OC4(C)CCC5C(C)CCC(C2C)C35OO4)CC1 (stereo not shown) | SK-MEL3 | cell viability, MTT |  | 24 h, with: deferoxamine 20 µM, 1 h before | 5.6 ± 0.6 µM
Trastuzumab emtansine | MDA-MB-468 | cell viability, CellTiter-Glo |  | 5 d, concentration as DM1 content | 0.0695 ± 0.005 µM
